Measurements of several laboratories.
Lines come from different studies, so protocols differ. ± marks the error that the study gave.

| SMILES | test | test system | conditions | AUC(0-inf) |
| --- | --- | --- | --- | --- |
| N[C@@H](Cc1ccc(O)c(O)c1)C(=O)O | – | human, plasma | oral, 150 mg single, geometric LS mean, together with: 37.5 mg carbidopa | 3870 ng·h/mL |
| CC(=O)C[C@H](c1ccccc1)c1c(O)c2ccccc2oc1=O | – | human | 200 mg | 69600 ± 18400 ng·h/mL |
| O=C1Nc2ccc(Cl)cc2[C@@](C#CC2CC2)(C(F)(F)F)O1 | – | healthy human, serum | oral, 400 mg single dose, together with: ezetimibe 10 mg | 29700 ± 15400 ng·h/mL |
| CNC(=O)c1ccccc1Sc1ccc2c(/C=C/c3ccccn3)n[nH]c2c1 | – | human, normal hepatic function (Child-Pugh), plasma | single dose, geometric mean, total drug | 156 ng·h/mL |
| COCCCCn1c(C(=O)N(CC(C)C)[C@@H]2CNC[C@H](C(=O)N3CCOCC3)C2)nc2ccccc21 | – | elderly human, plasma | oral, 80 mg, day 1, multiple dosing | 5890 ng·h/mL |
| Cc1ccc(NC(=O)c2ccc(CN3CCNCC3)cc2)cc1Nc1nccc(-c2cccnc2)n1 | – | human patients, plasma | oral, 400 mg of imatinib, first dose, day 1 of cycle 1 | 6700 ng·h/mL |
| NCCCS(=O)(=O)O | – | human, plasma | oral, 100 mg loose-filled capsule, single dose | 3330 ± 1370 ng·h/mL |
| COC(=O)N[C@H](C(=O)N1CCC[C@H]1c1nc(-c2ccc3c(c2)O[C@@H](c2ccccc2)n2c-3cc3cc(-c4c[nH]c([C@@H]5CCCN5C(=O)[C@@H](NC(=O)OC)C(C)C)n4)ccc32)c[nH]1)C(C)C | – | healthy adult humans, plasma | oral, 50 mg single dose, geometric mean, fasted, together with: grazoprevir 100 mg fixed-dose combination | 2.75 µM·h |
| C/C(=C\c1csc(C)n1)[C@@H]1C[C@@H]2O[C@]2(C)CCC[C@H](C)[C@H](O)[C@@H](C)C(=O)C(C)(C)[C@@H](O)CC(=O)N1 | LC-MS/MS | human patients, plasma | intravenous, 70 mg | 2890 ng·h/mL |
| CCN1CCN(Cc2ccc(Nc3ncc(F)c(-c4cc(F)c5nc(C)n(C(C)C)c5c4)n3)nc2)CC1 | population PK model | healthy human subjects, plasma | oral, 200 mg single dose | 3890 ng·h/mL |
| CO[C@H]1C[C@@H]2CC[C@@H](C)[C@@](O)(O2)C(=O)C(=O)N2CCCC[C@H]2C(=O)O[C@H]([C@H](C)C[C@@H]2CC[C@@H](O)[C@H](OC)C2)CC(=O)[C@H](C)/C=C(\C)[C@@H](O)[C@@H](OC)C(=O)[C@H](C)C[C@H](C)/C=C/C=C/C=C/1C | – | human, whole blood | oral, 20 mg, without grapefruit juice | 863 ng·h/mL |
| CC(=O)Nc1ccc(O[C@@H]2O[C@H](C(=O)O)[C@@H](O)[C@H](O)[C@H]2O)cc1 | – | healthy human volunteers | oral, 650 mg, day 1, acetaminophen alone | 81600 ng·h/mL |
| CC(C)(Sc1ccncc1-c1ccc(C#N)c2ccccc12)C(=O)O | – | humans, male, normal renal function, fasted, plasma | oral, 15 mg | 162 ng·h/mL |
| CN(Cc1cnc2nc(N)nc(N)c2n1)c1ccc(C(=O)N[C@@H](CCC(=O)O)C(=O)O)cc1 | – | human, plasma | oral, 20 mg, alone, mean | 2960 ng·h/mL |
| O=c1[nH]c(=O)c(Cc2cccc(C(F)(F)F)c2)c([C@H]2CC[C@H](c3ccccc3)CC2)[nH]1 | – | human, male, plasma | oral, 150 mg 14C solution, geometric mean | 4420 ng·h/mL |
| CCOc1ccc(Cc2cc([C@]34OC[C@](CO)(O3)[C@@H](O)[C@H](O)[C@H]4O)ccc2Cl)cc1 | – | human, plasma | oral, 15 mg, together with: sitagliptin 100 mg | 1480 ng·h/mL |
| C=CC(=O)Nc1cc(Nc2ncc(C(=O)OC(C)C)c(-c3cn(C)c4ccccc34)n2)c(OC)cc1N(C)CCN(C)C | – | human, plasma | oral, 160 mg, arithmetic mean, alone | 1360 ng·h/mL |
| CCCC[C@H](NC(C)=O)C(=O)N[C@H]1CCC(=O)NC[C@@H](C(=O)N[C@@H](Cc2c[nH]c3ccccc23)C(N)=O)NC(=O)[C@H](CCCNC(=N)N)NC(=O)[C@@H](Cc2ccccc2)NC(=O)[C@H](Cc2c[nH]cn2)NC1=O | – | healthy human volunteers, plasma | subcutaneous, 3.0 mg once daily, day 1 | 172 ng·h/mL |
| COc1cc2ncnc(Nc3ccc(F)c(Cl)c3)c2cc1OCCCN1CCOCC1 | – | human, plasma | oral, 250 mg, together with: vorinostat 200 mg | 8.67 ± 3.06 ng·h/mL |
| C=CC(=O)Nc1cc(Nc2ncc(C(=O)OC(C)C)c(-c3cn(C)c4ccccc34)n2)c(OC)cc1N(C)CCN(C)C | – | human, fasted | oral, 160 mg single dose, arithmetic mean | 1110 ng·h/mL |
| O=C(/C=C/c1cccc(S(=O)(=O)Nc2ccccc2)c1)NO[C@@H]1O[C@H](C(=O)O)[C@@H](O)[C@H](O)[C@H]1O | – | human severe liver dysfunction, plasma | intravenous, 400 mg/m^2, 30 min infusion, cycle 1 day -7, together with: belinostat 400 mg/m^2 iv | 390000 ng·h/mL |

| SMILES | test | test system | conditions | AUC(0-inf) |
| --- | --- | --- | --- | --- |
| CC(C)[C@@H](CS(=O)(=O)C(C)C)N1C(=O)[C@@](C)(CC(=O)O)C[C@H](c2cccc(Cl)c2)[C@H]1c1ccc(Cl)cc1 | – | human, plasma | oral, 60 mg, new tablet, fed, geometric LS mean | 2440 ng·h/mL |
| CCOc1cc([C@@H](CS(C)(=O)=O)N2C(=O)c3cccc(NC(C)=O)c3C2=O)ccc1OC | – | healthy human, male, plasma | oral, 20 mg single dose, together with: ketoconazole multiple doses | 2830 ng·h/mL |
| CCC(CC)O[C@@H]1C=C(C(=O)O)C[C@H](N)[C@H]1NC(C)=O | – | healthy Indian human, plasma | oral, 75 mg oseltamivir phosphate single, test capsule fed | 3860 ± 673 ng·h/mL |
| CCOCCn1c(C2CCN(CCc3ccc(C(C)(C)C(=O)O)cc3)CC2)nc2ccccc21 | – | healthy human subjects, plasma | oral, 20 mg, geometric LS mean | 703 ng·h/mL |
| CN[C@@H]1COc2c(S(=O)(=O)NC(=O)Nc3c4c(cc5c3CCC5)CCC4)cnn2C1 | – | human | oral, 600 mg, fasted, geometric LS mean | 170000 ng·h/mL |
| Cc1ccc(NC(=O)c2ccc(CN3CCN(C)CC3)cc2)cc1Nc1nccc(-c2cncc(-c3oncc3C)c2)n1 | – | older healthy human adults, plasma | oral, 25.0 mg single dose, fed, mean | 23400 ng·h/mL |
| CC(=O)O[C@H]1C(=O)[C@@]2(C)[C@H]([C@H](OC(=O)c3ccccc3)[C@]3(O)C[C@H](OC(=O)[C@H](O)[C@@H](NC(=O)c4ccccc4)c4ccccc4)C(C)=C1C3(C)C)[C@]1(OC(C)=O)CO[C@@H]1C[C@@H]2O | – | human, plasma | intravenous, 175 mg/m², cycle 1, no ritonavir, together with: carboplatin | 22.8 ± 8.1 µM·h |
| C#C[C@]1(O)CC[C@H]2[C@@H]3CCC4=CC(=O)CC[C@@H]4[C@H]3CC[C@@]21C | – | human female, plasma | oral, 1 mg, day 1, together with: ethinyl estradiol 35 µg | 40.9 ng·h/mL |
| CCCOc1ccc(S(=O)(=O)NCCC2CCCN2C)cc1-c1nc2c(CCC)nn(C)c2c(=O)[nH]1 (centres unmarked) | – | healthy male humans, plasma | oral, 200 mg, together with: dapoxetine 60 mg | 4560 ± 1250 ng·h/mL |
| Cc1[nH]c2ccccc2c1CCNCc1ccc(/C=C/C(=O)NO)cc1 | – | human, plasma | oral, 20 mg, fed, normal breakfast | 153 ng·h/mL |
| COC(=O)c1ccc2c(c1)NC(=O)/C2=C(\Nc1ccc(N(C)C(=O)CN2CCN(C)CC2)cc1)c1ccccc1 | – | human, hepatic impairment Child-Pugh B, plasma | oral, 100 mg single dose, fed, adjusted geometric mean | 674 ng·h/mL |
| CNC(=O)c1c(C)oc2cc(Oc3ncnc4cc(OC)c(OC)cc34)ccc12 | – | human, plasma | oral, 5 mg, fasted | 5060 ng·h/mL |
| Cc1ccc(C(=O)NC2CC2)cc1-n1ncc(C(=O)c2cccc(C#N)c2)c1N | – | healthy human | oral, 14 mg single, geometric mean | 6250 ng·h/mL |
| CC(C)NC[C@@H](C(=O)N1CCN(c2ncnc3c2[C@H](C)C[C@H]3O)CC1)c1ccc(Cl)cc1 | – | human, matched normal hepatic function (Child-Pugh), plasma | oral, 100 mg single, reference geometric mean, vs Severe | 309 ng·h/mL |
| NS(=O)(=O)OC[C@@H]1C[C@@H](n2ccc3c(N[C@H]4CCc5ccccc54)ncnc32)C[C@@H]1O | – | human | iv, 8 mg/m^2, day 8, geometric LS mean, together with: fluconazole | 498 ng·h/mL |
| CCCS(=O)(=O)N[C@H]1C[C@@H](N(C)c2ncnc3[nH]ccc23)C1 | – | humans, moderate hepatic impairment | oral, 200 mg single | 8600 ng·h/mL |
| Cl.NCCc1c[nH]c(=S)n1[C@H]1COc2c(F)cc(F)cc2C1 | – | human male, fasted, plasma | oral, 200 mg single dose, arithmetic mean | 2240 ng·h/mL |
| CC(C)C[C@H](NC(=O)[C@H](CCc1ccccc1)NC(=O)CN1CCOCC1)C(=O)N[C@@H](Cc1ccccc1)C(=O)N[C@@H](CC(C)C)C(=O)[C@@]1(C)CO1 | – | human patients, plasma | intravenous infusion 10 min, 20 mg/m^2, day 1 of cycle 1, KRd regimen | 326 ± 73.5 ng·h/mL |
| C=C(C)[C@@H]1CC[C@]2(NCCN3CCS(=O)(=O)CC3)CC[C@]3(C)[C@H](CC[C@@H]4[C@@]5(C)CC=C(C6=CC[C@@](CF)(C(=O)O)CC6)C(C)(C)[C@@H]5CC[C@]43C)[C@@H]12 | – | healthy human volunteers | oral, 200 mg, capsule, moderate-fat meal, arithmetic mean | 39600 ng·h/mL |
| C=CC(=O)N1CCC([C@@H]2CCNc3c(C(N)=O)c(-c4ccc(Oc5ccccc5)cc4)nn32)CC1 | – | human | oral, 480 mg, single dose, mean | 3060 ng·h/mL |
